# Experimental data gathered from unrelated publications.
# Compare with care: the assays were run in different laboratories.
# Observed: metabolic stability
# Species: mouse
Structure (SMILES),technique,sample,tested at,pH,half-life
COc1ccc(-c2ccc3oc(-c4ccc(OC)cc4)c(C#CC4(O)CCCCC4)c3c2)cc1,,liver microsomes,,,> 30 min
C#Cc1c(F)ccc2cc(O)cc(-c3ncc4c(N5CC6CCC(C5)N6C(=O)OC(C)OC(=O)CCCC)nc(OC[C@@]56CCCN5C[C@H](F)C6)nc4c3F)c12 (some centres unmarked),,liver microsomes,1 µM,pH 7.4,0.73 min
N#Cc1ccc(NC(=O)c2cccnc2)cc1Cl,,liver microsomes,,,11.7 min
CNC(=O)C1CCN(c2ccccc2NC(=O)c2ccc(-c3cc(O)ccc3C)c(C)n2)CC1,,liver microsomes,2 µM,,9 min
C#Cc1c(F)ccc2cc(O)cc(-c3ncc4c(N5CC6CCC(C5)N6C(=O)OCc5ccc(OC(=O)CCCC)cc5)nc(OC[C@@]56CCCN5C[C@H](F)C6)nc4c3F)c12,,liver microsomes,1 µM,pH 7.4,0.61 min
C/C(=N\OCCCN1CCCCC1)c1ccc(C(F)(F)F)cc1,,liver microsomes,,,37.6 min
C#Cc1c(F)ccc2cc(O)cc(-c3ncc4c(N5CC6CCC(C5)N6C(=O)OCc5ccc(NC(=O)OCCCC)cc5)nc(OC[C@@]56CCCN5C[C@H](F)C6)nc4c3F)c12,,liver microsomes,1 µM,pH 7.4,40.3 min
CN(CC(=O)N(Cc1ccc(C2CCCCC2)cc1)c1ccc(C(=O)O)cc1)S(=O)(=O)c1c(F)c(F)c(F)c(F)c1F,,hepatocytes,,,10.1 min
CC[C@H](C)[C@H](N)C(=O)N[C@@H](CO)C(=O)N[C@@H](Cc1ccc(O)cc1)C(=O)NCC(=O)NCC(=O)N[C@@H](C)C(=O)N[C@@H](CC(=O)O)C(=O)N[C@@H](Cc1ccc(O)cc1)C(=O)N[C@@H](CCCCN)C(=O)O,HPLC,brain homogenate,500 µM,,100 min
COc1cc(-c2ccc3oc(-c4ccsc4)c(C#CC4(O)CCCCC4)c3c2)cc(OC)c1OC,,liver microsomes,,,> 30 min
Cc1cc(=O)oc2cc(NC(=O)OCc3cc(C(C)C)c(N=[N+]=[N-])c(C(C)C)c3)ccc12,,liver microsomes,10 µM,,22.8 min

# A few entries again:
Structure (SMILES),technique,sample,tested at,pH,half-life
COc1ccc(-c2ccc3oc(-c4ccc(OC)cc4)c(C#CC4(O)CCCCC4)c3c2)cc1,,liver microsomes,,,> 30 min
C#Cc1c(F)ccc2cc(O)cc(-c3ncc4c(N5CC6CCC(C5)N6C(=O)OC(C)OC(=O)CCCC)nc(OC[C@@]56CCCN5C[C@H](F)C6)nc4c3F)c12 (some centres unmarked),,liver microsomes,1 µM,pH 7.4,0.73 min
